Assay results gathered from unrelated publications.
Each line is one published result; not all experiments were run side by side. Values joined by “and” are separate records of one study, mostly repeats; a detail may differ.
Cell line: SK-MEL-28

Compound	assay	setting	scale	endpoint	value
FC(F)(F)c1ccnc(-c2cc(C(F)(F)F)ccn2)c1.FC(F)(F)c1ccnc(-c2cc(C(F)(F)F)ccn2)c1.[Cl-].[Cl-].[Ru+2].c1csc(-c2ccc(-c3ccc(-c4ccc(-c5nc6c7cccnc7c7ncccc7c6[nH]5)s4)s3)s2)c1	cell viability	hypoxia 1% O2, together with: green light	reference: dark EC50 over light EC50	mean phototherapeutic index	210
CCCCCCCCC1(CCCCCCCC)c2cc(C#Cc3cc4[n+]5c(c3)-c3cccc[n+]3[Ir-3]536([n+]5ccccc5-4)[n+]4ccccc4-c4cc(-c5ccccc5)cc([n+]43)-c3cccc[n+]36)ccc2-c2ccc(C#Cc3cc4[n+]5c(c3)-c3cccc[n+]3[Ir-3]536([n+]5ccccc5-4)[n+]4ccccc4-c4cc(-c5ccccc5)cc([n+]43)-c3cccc[n+]36)cc21.F[P-](F)(F)(F)(F)F.F[P-](F)(F)(F)(F)F.F[P-](F)(F)(F)(F)F.F[P-](F)(F)(F)(F)F.F[P-](F)(F)(F)(F)F.F[P-](F)(F)(F)(F)F	–	red light 100 J/cm2	reference: dark EC50 over red-light EC50	phototherapeutic index	1
COc1ccc(C2=Nn3c(NN=C4C(=O)N(Cc5ccccc5)c5ccc(Cl)cc54)nnc3SC2)cc1	cell growth or viability, SRB	10 µM	–	inhibition	12%
FC(F)(F)c1ccnc(-c2cc(C(F)(F)F)ccn2)c1.FC(F)(F)c1ccnc(-c2cc(C(F)(F)F)ccn2)c1.[Cl-].[Cl-].[Ru+2].c1csc(-c2ccc(-c3ccc(-c4nc5c6cccnc6c6ncccc6c5[nH]4)s3)s2)c1	cell viability	normoxia, together with: green light 523 nm, 100 J/cm2	reference: dark EC50 over light EC50	phototherapeutic index	731
CCCCCCCCC1(CCCCCCCC)c2cc(-c3cc4[n+]5c(c3)-c3cccc[n+]3[Ir-3]536([c]5ccccc5-c5cc(-c7ccccc7)cc([n+]53)-c3cccc[c]36)[n+]3ccccc3-4)ccc2-c2ccc(-c3cc4[n+]5c(c3)-c3cccc[n+]3[Ir-3]536([c]5ccccc5-c5cc(-c7ccccc7)cc([n+]53)-c3cccc[c]36)[n+]3ccccc3-4)cc21.F[P-](F)(F)(F)(F)F.F[P-](F)(F)(F)(F)F	–	red light 100 J/cm2	reference: dark EC50 over red-light EC50	phototherapeutic index	0.82
CC(C)(C)c1nc(-c2cccc(NS(=O)(=O)c3c(F)cccc3F)c2F)c(-c2ccnc(N)n2)s1.Cc1[nH]c2ccccc2c1CCNCc1ccc(/C=C/C(=O)NO)cc1	flow cytometry	concentration not given, 48 h	–	sub-G1 cells	> 80% and 88.5%
N#Cc1c(-c2ccc(Cl)cc2)cc(-c2cccc3ccccc23)n2c(Cc3ccccc3)nnc12	cell growth or viability, MTT	72 h	–	IC50	1580 nM
FC(F)(F)c1ccnc(-c2cc(C(F)(F)F)ccn2)c1.FC(F)(F)c1ccnc(-c2cc(C(F)(F)F)ccn2)c1.[Cl-].[Cl-].[Ru+2].c1cnc2c(c1)ccc1cccnc12	cell growth or viability, resazurin	dark	–	EC50	> 300000 nM
CCCCCCCCC1(CCCCCCCC)c2cc(-c3cc4[n+]5c(c3)-c3cccc[n+]3[Ir-3]536([n+]5ccccc5-c5cc(-c7ccccc7)cc([n+]53)-c3cccc[n+]36)[n+]3ccccc3-4)ccc2-c2ccc(-c3cc4[n+]5c(c3)-c3cccc[n+]3[Ir-3]536([n+]5ccccc5-c5cc(-c7ccccc7)cc([n+]53)-c3cccc[n+]36)[n+]3ccccc3-4)cc21.F[P-](F)(F)(F)(F)F.F[P-](F)(F)(F)(F)F.F[P-](F)(F)(F)(F)F.F[P-](F)(F)(F)(F)F.F[P-](F)(F)(F)(F)F.F[P-](F)(F)(F)(F)F	–	red light 100 J/cm2	reference: dark EC50 over red-light EC50	phototherapeutic index	1.4
N#Cc1c(-c2cccs2)cc(-c2cccc3ccccc23)nc1Nc1ccc(Nc2nc(-c3cccc4ccccc34)cc(-c3cccs3)c2C#N)cc1	cell growth or viability, MTT	72 h	–	IC50	563 nM
CC(=O)OC[C@H]1O[C@@H](Sc2sc(C(=O)c3ccc(Br)cc3)c(N)c2-c2nc3ccccc3s2)[C@H](OC(C)=O)[C@@H](OC(C)=O)[C@@H]1OC(C)=O	SRB	10 µM, 48 h	reference: untreated	growth	70.7%
FC(F)(F)c1ccnc(-c2cc(C(F)(F)F)ccn2)c1.FC(F)(F)c1ccnc(-c2cc(C(F)(F)F)ccn2)c1.[Cl-].[Cl-].[Ru+2].c1csc(-c2nc3c4cccnc4c4ncccc4c3[nH]2)c1	cell viability	100 J/cm2 light, normoxia, together with: visible light 400-700 nm	reference: dark over light EC50	phototherapeutic index	11
CC(=C(c1ccc(O)cc1)c1ccc(Cl)cc1)c1ccc(Cl)cc1	cell growth or viability, SRB	–	–	GI50	810 nM
